{"data": "Measured values of several laboratories", "note": "Numbered parts are unrelated; each lists some results of a single study. “And” joins repeats or separate records; there may be more than shown. ± marks the error that the study gave.", "sequence of UniProt P07949 (whole entry, unmodified, looked up)": "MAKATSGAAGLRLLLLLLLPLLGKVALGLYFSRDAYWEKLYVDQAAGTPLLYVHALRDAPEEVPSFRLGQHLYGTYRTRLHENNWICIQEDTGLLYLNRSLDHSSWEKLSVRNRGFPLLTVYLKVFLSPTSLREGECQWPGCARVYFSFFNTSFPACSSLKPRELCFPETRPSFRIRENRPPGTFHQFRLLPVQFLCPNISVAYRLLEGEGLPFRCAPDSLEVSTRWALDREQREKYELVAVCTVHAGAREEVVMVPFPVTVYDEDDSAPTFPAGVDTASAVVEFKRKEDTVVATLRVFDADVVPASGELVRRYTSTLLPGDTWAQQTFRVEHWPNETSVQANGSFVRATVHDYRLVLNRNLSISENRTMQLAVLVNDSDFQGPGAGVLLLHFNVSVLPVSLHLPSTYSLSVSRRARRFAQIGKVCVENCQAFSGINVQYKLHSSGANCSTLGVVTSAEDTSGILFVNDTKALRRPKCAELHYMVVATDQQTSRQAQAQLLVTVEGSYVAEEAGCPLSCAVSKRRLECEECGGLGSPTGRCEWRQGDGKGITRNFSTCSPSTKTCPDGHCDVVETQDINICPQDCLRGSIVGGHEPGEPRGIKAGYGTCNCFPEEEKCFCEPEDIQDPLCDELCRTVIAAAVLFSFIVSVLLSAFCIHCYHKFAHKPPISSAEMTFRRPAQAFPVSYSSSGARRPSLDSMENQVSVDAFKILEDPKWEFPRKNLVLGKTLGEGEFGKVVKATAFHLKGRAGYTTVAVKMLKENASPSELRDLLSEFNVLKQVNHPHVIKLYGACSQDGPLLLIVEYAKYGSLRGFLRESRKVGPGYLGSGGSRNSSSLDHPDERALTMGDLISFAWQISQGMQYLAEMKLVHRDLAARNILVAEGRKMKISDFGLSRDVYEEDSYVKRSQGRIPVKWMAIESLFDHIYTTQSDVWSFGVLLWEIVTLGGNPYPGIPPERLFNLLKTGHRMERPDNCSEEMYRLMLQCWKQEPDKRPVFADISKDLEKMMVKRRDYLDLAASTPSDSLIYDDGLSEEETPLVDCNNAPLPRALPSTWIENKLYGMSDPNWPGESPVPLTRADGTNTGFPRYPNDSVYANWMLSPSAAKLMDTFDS", "sequence of UniProt Q9NYY3 (whole entry, looked up)": "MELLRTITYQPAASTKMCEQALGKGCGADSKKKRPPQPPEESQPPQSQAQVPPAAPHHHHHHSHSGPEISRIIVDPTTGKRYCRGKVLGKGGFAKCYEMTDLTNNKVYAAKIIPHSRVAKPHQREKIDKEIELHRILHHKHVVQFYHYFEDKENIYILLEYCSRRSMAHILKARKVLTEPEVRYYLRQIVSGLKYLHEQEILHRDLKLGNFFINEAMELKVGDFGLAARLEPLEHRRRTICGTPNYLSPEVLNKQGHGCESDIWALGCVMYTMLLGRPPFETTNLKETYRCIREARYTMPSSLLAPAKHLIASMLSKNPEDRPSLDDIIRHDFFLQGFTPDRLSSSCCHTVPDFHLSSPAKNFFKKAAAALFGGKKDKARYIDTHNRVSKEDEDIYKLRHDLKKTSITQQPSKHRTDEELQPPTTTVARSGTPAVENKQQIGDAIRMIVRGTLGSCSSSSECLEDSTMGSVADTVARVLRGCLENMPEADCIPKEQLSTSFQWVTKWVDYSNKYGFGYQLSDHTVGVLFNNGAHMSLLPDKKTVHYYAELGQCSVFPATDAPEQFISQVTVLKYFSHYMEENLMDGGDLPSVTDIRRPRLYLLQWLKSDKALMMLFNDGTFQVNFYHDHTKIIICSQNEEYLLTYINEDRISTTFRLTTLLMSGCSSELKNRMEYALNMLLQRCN", "sequence of UniProt P42684 (whole entry, looked up)": "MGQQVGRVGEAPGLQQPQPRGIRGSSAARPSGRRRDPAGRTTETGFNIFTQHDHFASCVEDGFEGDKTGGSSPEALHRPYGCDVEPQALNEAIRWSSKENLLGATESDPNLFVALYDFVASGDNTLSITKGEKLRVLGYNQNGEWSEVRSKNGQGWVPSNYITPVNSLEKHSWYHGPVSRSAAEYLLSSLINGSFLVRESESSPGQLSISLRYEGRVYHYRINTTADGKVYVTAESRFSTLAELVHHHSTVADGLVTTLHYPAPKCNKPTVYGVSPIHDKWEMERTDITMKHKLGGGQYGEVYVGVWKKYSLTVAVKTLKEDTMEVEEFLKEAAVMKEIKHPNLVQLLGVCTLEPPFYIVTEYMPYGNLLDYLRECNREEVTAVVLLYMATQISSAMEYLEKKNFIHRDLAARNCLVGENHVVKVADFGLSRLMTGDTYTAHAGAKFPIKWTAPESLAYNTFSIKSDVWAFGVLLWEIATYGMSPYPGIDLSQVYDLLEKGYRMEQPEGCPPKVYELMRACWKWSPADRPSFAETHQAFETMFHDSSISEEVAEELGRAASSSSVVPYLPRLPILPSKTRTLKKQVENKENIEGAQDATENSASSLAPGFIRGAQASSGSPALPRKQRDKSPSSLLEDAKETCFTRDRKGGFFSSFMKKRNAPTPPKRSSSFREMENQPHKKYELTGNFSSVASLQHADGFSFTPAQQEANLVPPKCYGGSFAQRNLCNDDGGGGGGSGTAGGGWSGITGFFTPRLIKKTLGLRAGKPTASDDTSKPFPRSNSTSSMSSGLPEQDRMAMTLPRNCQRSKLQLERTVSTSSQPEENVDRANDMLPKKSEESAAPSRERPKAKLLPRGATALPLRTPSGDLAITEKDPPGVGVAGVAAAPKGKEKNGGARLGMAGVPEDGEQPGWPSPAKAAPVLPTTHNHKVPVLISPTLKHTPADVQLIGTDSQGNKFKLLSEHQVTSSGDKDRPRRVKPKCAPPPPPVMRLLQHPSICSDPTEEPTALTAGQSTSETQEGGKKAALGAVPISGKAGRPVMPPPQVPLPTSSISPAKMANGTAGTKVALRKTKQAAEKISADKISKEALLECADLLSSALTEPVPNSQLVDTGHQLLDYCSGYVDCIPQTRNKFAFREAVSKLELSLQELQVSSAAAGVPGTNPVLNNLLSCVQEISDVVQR"}
{"data": "Set 1", "Structure (SMILES)": "C=CC(=O)N1CCN(c2nc(OC[C@@H]3CCCN3C)nc3c2CCN(c2cccc4cccc(C)c24)C3)C[C@@H]1CC#N", "read-out": "binding", "mode": "competitor", "technique": "NanoBRET", "cell line": "HEK293", "HRAS": "GTPase HRas (HRAS, Homo sapiens, UniProt P01112)", "KRAS Q61H": "GTPase KRas (KRAS, Homo sapiens, UniProt P01116, Q61H)", "KRAS Q61R": "GTPase KRas (KRAS, Homo sapiens, UniProt P01116, Q61R)"}
{"target": "HRAS", "conditions": "20 µM", "normalized BRET": "184% and 112%"}
{"target": "HRAS", "conditions": "741 nM", "normalized BRET": "104% and 91.1%"}
{"target": "KRAS Q61H", "conditions": "2.22 µM", "normalized BRET": "40.6% and 28.2% and 31.6%"}
{"target": "KRAS Q61R", "conditions": "247 nM", "normalized BRET": "81.6% and 103% and 98.2%"}
{"target": "GTPase KRas (KRAS, Homo sapiens, UniProt P01116, Q61L)", "conditions": "6.67 µM", "normalized BRET": "31.3% and 32.9% and 34.1%"}
{"target": "KRAS Q61H", "conditions": "1.02 nM", "normalized BRET": "93.1% and 92.2% and 96%"}
{"target": "GTPase KRas (KRAS, Homo sapiens, UniProt P01116, G13D)", "conditions": "1.02 nM", "normalized BRET": "92.5% and 98.8% and 84.8%"}
{"target": "KRAS Q61H", "conditions": "82.2 nM", "normalized BRET": "93.8% and 81.3% and 85.1%"}
{"target": "KRAS Q61R", "conditions": "20 µM", "normalized BRET": "207% and 178% and 125%"}
{"target": "GTPase KRas (KRAS, Homo sapiens, UniProt P01116, G12D)", "conditions": "82.2 nM", "normalized BRET": "93.8% and 92.1%"}
{"data": "Set 2", "Structure (SMILES)": "C[C@@H]1CN(c2ccc(-c3cc(C(=O)NCCOCCOCCOCCOCCNC(=O)Cn4cc(-c5[nH]cc(C(=O)N[C@@H](CC(N)=O)c6ccc(F)c(Cl)c6)c5-c5ccc(Cl)cc5F)cn4)ccc3F)cc2NC(=O)c2c[nH]c(=O)cc2C(F)(F)F)C[C@H](C)N1C", "read-out": "thermal unfolding", "technique": "differential scanning fluorimetry", "tested at": "5.5 µM", "reading": "higher = more unfolded", "DCAF1": "DDB1- and CUL4-associated factor 1 (DCAF1, Homo sapiens, UniProt Q9Y4B6)", "WDR5": "WD repeat-containing protein 5 (WDR5, Homo sapiens, UniProt P61964)", "sequence of UniProt Q9Y4B6 (whole entry, looked up)": "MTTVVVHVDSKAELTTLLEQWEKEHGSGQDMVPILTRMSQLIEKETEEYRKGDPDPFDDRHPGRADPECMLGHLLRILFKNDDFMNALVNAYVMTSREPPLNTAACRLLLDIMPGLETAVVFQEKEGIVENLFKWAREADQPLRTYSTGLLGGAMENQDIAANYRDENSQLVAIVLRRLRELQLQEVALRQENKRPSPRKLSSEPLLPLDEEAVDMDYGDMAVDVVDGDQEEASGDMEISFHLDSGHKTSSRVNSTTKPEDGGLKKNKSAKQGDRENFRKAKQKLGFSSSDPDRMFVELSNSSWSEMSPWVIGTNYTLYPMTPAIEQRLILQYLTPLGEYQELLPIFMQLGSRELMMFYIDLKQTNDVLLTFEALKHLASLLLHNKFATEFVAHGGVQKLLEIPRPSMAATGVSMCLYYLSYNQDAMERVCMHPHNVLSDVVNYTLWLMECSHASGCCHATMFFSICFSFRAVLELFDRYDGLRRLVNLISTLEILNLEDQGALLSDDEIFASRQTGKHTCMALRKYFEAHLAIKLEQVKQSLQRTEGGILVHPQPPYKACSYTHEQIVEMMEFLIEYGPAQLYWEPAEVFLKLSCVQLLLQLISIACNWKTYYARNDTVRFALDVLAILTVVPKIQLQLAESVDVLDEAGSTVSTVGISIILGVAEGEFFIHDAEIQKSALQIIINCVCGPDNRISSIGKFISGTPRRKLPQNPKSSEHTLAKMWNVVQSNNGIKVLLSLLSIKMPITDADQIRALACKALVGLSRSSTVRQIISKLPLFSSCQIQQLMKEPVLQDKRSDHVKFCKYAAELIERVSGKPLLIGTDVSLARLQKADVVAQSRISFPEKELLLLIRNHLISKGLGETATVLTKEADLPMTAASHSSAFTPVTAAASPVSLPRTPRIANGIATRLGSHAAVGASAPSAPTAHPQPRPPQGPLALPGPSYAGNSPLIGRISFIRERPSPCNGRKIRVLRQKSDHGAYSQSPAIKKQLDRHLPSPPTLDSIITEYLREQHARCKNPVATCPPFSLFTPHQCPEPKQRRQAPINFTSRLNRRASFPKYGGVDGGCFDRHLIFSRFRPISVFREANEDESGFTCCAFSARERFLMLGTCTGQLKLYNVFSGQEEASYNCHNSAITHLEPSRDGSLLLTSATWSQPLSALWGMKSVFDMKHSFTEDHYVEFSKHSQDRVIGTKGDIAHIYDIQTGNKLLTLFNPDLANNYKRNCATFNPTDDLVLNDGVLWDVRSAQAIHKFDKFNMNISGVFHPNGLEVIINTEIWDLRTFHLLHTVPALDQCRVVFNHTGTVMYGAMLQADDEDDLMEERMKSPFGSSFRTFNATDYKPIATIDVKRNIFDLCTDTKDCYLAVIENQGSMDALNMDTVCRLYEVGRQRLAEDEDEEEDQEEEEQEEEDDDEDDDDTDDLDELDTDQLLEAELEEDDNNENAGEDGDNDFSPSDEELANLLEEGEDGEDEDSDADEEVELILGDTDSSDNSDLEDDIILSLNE"}
{"target": "DCAF1", "conditions": "87.61 °C", "SYPRO Orange fluorescence": "37300 a.u."}
{"target": "DCAF1", "conditions": "25.4 °C", "SYPRO Orange fluorescence": "7480 a.u."}
{"target": "DCAF1", "conditions": "35.8 °C", "SYPRO Orange fluorescence": "9110 a.u."}
{"target": "WDR5", "conditions": "50.2 °C", "SYPRO Orange fluorescence": "14500 a.u."}
{"target": "WDR5", "conditions": "46 °C", "SYPRO Orange fluorescence": "14300 a.u."}
{"target": "WDR5", "conditions": "30.6 °C", "SYPRO Orange fluorescence": "15000 a.u."}
{"target": "DCAF1", "conditions": "34.4 °C", "SYPRO Orange fluorescence": "8670 a.u."}
{"target": "DCAF1", "conditions": "52.61 °C", "SYPRO Orange fluorescence": "16300 a.u."}
{"target": "WDR5", "conditions": "73.61 °C", "SYPRO Orange fluorescence": "9040 a.u."}
{"target": "DCAF1", "conditions": "53.21 °C", "SYPRO Orange fluorescence": "16800 a.u."}
{"target": "DCAF1", "conditions": "47.6 °C", "SYPRO Orange fluorescence": "13400 a.u."}
{"data": "Set 3", "Compound": "CC[C@@]1(c2ccccc2)C2=C(CC(C)(C)CC2=O)Nc2n[nH]cc21", "tested at": "1 µM"}
{"target": "Serine/threonine-protein kinase PLK2 (PLK2, Homo sapiens, UniProt Q9NYY3)", "test": "binding, competition with immobilised ligand", "remaining binding [%]": 85}
{"target": "Phosphatidylinositol 4,5-bisphosphate 3-kinase catalytic subunit alpha isoform (PIK3CA, Homo sapiens, UniProt P42336, H1047Y)", "test": "kinase binding, KINOMEscan", "scale": "reference: DMSO control", "remaining binding [%]": 100}
{"target": "Insulin-like growth factor 1 receptor (IGF1R, Homo sapiens, UniProt P08069)", "test": "binding, competition with immobilised ligand", "remaining binding [%]": 100}
{"target": "Serine/threonine-protein kinase 36 (STK36, Homo sapiens, UniProt Q9NRP7)", "test": "binding, competition with immobilised ligand", "remaining binding [%]": 100}
{"target": "Mitogen-activated protein kinase kinase kinase 2 (MAP3K2, Homo sapiens, UniProt Q9Y2U5)", "test": "kinase binding, KINOMEscan", "scale": "reference: DMSO control", "remaining binding [%]": 100}
{"target": "Tyrosine-protein kinase HCK (HCK, Homo sapiens, UniProt P08631)", "test": "kinase binding, KINOMEscan", "scale": "reference: DMSO control", "remaining binding [%]": 100}
{"target": "Mitogen-activated protein kinase kinase kinase kinase 2 (MAP4K2, Homo sapiens, UniProt Q12851)", "test": "binding, competition with immobilised ligand", "remaining binding [%]": 100}
{"target": "Mitogen-activated protein kinase kinase kinase kinase 1 (MAP4K1, Homo sapiens, UniProt Q92918)", "test": "binding, competition with immobilised ligand", "remaining binding [%]": 72}
{"target": "Phosphorylase b kinase gamma catalytic chain, skeletal muscle/heart isoform (PHKG1, Homo sapiens, UniProt Q16816)", "test": "binding, competition with immobilised ligand", "remaining binding [%]": 96}
{"target": "Tyrosine-protein kinase ABL2 (ABL2, Homo sapiens, UniProt P42684)", "test": "kinase binding, KINOMEscan", "scale": "reference: DMSO control", "remaining binding [%]": 88}
{"target": "Proto-oncogene tyrosine-protein kinase receptor Ret (RET, Homo sapiens, UniProt P07949, V804M)", "test": "binding, competition with immobilised ligand", "remaining binding [%]": 98}
{"target": "Casein kinase I isoform delta (CSNK1D, Homo sapiens, UniProt P48730)", "test": "kinase binding, KINOMEscan", "scale": "reference: DMSO control", "remaining binding [%]": 100}
{"target": "Serine/threonine-protein kinase 38-like (STK38L, Homo sapiens, UniProt Q9Y2H1)", "test": "kinase binding, KINOMEscan", "scale": "reference: DMSO control", "remaining binding [%]": 90}
{"target": "Tyrosine-protein kinase ABL1, non-phosphorylated (ABL1, Homo sapiens, UniProt P00519)", "test": "kinase binding, KINOMEscan", "scale": "reference: DMSO control", "remaining binding [%]": 61}
{"target": "Serine/threonine-protein kinase Chk2 (CHEK2, Homo sapiens, UniProt O96017)", "test": "kinase binding, KINOMEscan", "scale": "reference: DMSO control", "remaining binding [%]": 100}
{"target": "Proto-oncogene tyrosine-protein kinase receptor Ret (RET, Homo sapiens, UniProt P07949, M918T)", "test": "binding, competition with immobilised ligand", "remaining binding [%]": 100}
{"target": "Mitogen-activated protein kinase 15 (MAPK15, Homo sapiens, UniProt Q8TD08)", "test": "binding, competition with immobilised ligand", "remaining binding [%]": 100}
{"target": "Serine/threonine-protein kinase N2 (PKN2, Homo sapiens, UniProt Q16513)", "test": "binding, competition with immobilised ligand", "remaining binding [%]": 100}
{"target": "Maternal embryonic leucine zipper kinase (MELK, Homo sapiens, UniProt Q14680)", "test": "binding, competition with immobilised ligand", "remaining binding [%]": 96}
{"target": "G protein-coupled receptor kinase 4 (GRK4, Homo sapiens, UniProt P32298)", "test": "binding, competition with immobilised ligand", "remaining binding [%]": 99}
{"target": "Beta-adrenergic receptor kinase 1 (GRK2, Homo sapiens, UniProt P25098)", "test": "binding, competition with immobilised ligand", "remaining binding [%]": 100}
{"target": "Ribosomal protein S6 kinase alpha-4, N-terminal kinase domain (RPS6KA4, Homo sapiens, UniProt O75676)", "test": "binding, competition with immobilised ligand", "remaining binding [%]": 100}
{"target": "Non-receptor tyrosine-protein kinase TYK2, JH1 domain (TYK2, Homo sapiens, UniProt P29597)", "test": "kinase binding, KINOMEscan", "scale": "reference: DMSO control", "remaining binding [%]": 100}
{"data": "Set 4", "target": "Sodium-dependent neutral amino acid transporter B(0)AT1 (SLC6A19, Homo sapiens, UniProt Q695T7)", "mode": "inhibitor", "technique": "FLIPR membrane potential", "cell line": "CHO-BC cells", "tested at": "30 µM", "notes": "30 µM cinromide as 0%", "with": "1.5 mM L-leucine", "reference": "uninhibited cells", "sequence of UniProt Q695T7 (whole entry, looked up)": "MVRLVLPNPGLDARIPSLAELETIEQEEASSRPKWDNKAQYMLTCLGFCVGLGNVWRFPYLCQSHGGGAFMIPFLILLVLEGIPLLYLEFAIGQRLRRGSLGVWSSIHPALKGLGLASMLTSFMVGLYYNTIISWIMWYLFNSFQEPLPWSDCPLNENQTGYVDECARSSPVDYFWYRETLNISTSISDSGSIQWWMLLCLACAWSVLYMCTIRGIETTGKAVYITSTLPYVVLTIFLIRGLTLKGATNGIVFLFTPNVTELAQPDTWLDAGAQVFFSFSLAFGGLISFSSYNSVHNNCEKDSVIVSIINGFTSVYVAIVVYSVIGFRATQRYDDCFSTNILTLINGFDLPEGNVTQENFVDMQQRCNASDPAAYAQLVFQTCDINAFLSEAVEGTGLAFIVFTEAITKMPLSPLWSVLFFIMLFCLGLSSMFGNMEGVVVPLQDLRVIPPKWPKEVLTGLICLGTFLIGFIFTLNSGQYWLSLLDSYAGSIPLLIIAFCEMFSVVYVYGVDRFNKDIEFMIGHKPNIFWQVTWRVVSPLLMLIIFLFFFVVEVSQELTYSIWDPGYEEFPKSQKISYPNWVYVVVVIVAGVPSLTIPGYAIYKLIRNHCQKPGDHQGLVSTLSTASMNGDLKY"}
{"Structure (SMILES)": "CC(C)NC(=O)COc1cccc2ccccc12", "remaining activity [%]": "10 ± 2"}
{"Structure (SMILES)": "CC(C)NC(=O)COc1ccc(Cl)cc1", "remaining activity [%]": "34 ± 4"}
{"Structure (SMILES)": "CNC(=O)COc1cc(C)c(Cl)c(C)c1", "remaining activity [%]": "44 ± 6"}
{"Structure (SMILES)": "Cc1cc(OCC(=O)NO)cc(C)c1Cl", "remaining activity [%]": "90 ± 10"}
{"Structure (SMILES)": "Cc1cc(NCC(=O)NC(C)C)cc(C)c1I", "remaining activity [%]": "-3 ± 2"}
{"Structure (SMILES)": "Cc1cc(OC(C)C(=O)NC(C)C)cc(C)c1Cl (racemic)", "remaining activity [%]": "78 ± 9"}
{"Structure (SMILES)": "CC(C)NC(=O)CSc1ccc([N+](=O)[O-])cc1", "remaining activity [%]": "39 ± 11"}
{"Structure (SMILES)": "COc1ccc(SCC(=O)NC(C)C)cc1", "remaining activity [%]": "80 ± 22"}
{"Structure (SMILES)": "Cc1cc(OCC(=O)CC(C)C)cc(C)c1Cl", "remaining activity [%]": "106 ± 13"}
{"Structure (SMILES)": "Cc1cc(OCC(=O)SC(C)C)cc(C)c1Cl", "remaining activity [%]": "131 ± 10"}
{"Structure (SMILES)": "Cc1cc(OCC(=O)NCCCO)cc(C)c1Cl", "remaining activity [%]": "103 ± 10"}
{"Structure (SMILES)": "Cc1cc(OCC(=O)NCc2ccccc2)cc(C)c1Cl", "remaining activity [%]": "102 ± 10"}
{"Structure (SMILES)": "CCCCCCCCNC(=O)COc1cc(C)c(Cl)c(C)c1", "remaining activity [%]": "105 ± 11"}
{"Structure (SMILES)": "CC(C)NC(=O)COc1ccc2ccccc2c1", "remaining activity [%]": "1 ± 0.3"}
{"Structure (SMILES)": "Cc1cc(OC(C)(C)C(=O)NC(C)C)cc(C)c1Cl", "remaining activity [%]": "127 ± 9"}
{"note": "Excerpt of the above (set 4):"}
{"Structure (SMILES)": "CCCCCCCCNC(=O)COc1cc(C)c(Cl)c(C)c1", "remaining activity [%]": "105 ± 11"}
{"Structure (SMILES)": "CC(C)NC(=O)COc1ccc2ccccc2c1", "remaining activity [%]": "1 ± 0.3"}
{"Structure (SMILES)": "Cc1cc(OCC(=O)NO)cc(C)c1Cl", "remaining activity [%]": "90 ± 10"}
{"Structure (SMILES)": "Cc1cc(OCC(=O)NCCCO)cc(C)c1Cl", "remaining activity [%]": "103 ± 10"}
{"Structure (SMILES)": "Cc1cc(OC(C)C(=O)NC(C)C)cc(C)c1Cl (racemic)", "remaining activity [%]": "78 ± 9"}
{"Structure (SMILES)": "CC(C)NC(=O)CSc1ccc([N+](=O)[O-])cc1", "remaining activity [%]": "39 ± 11"}
{"Structure (SMILES)": "Cc1cc(NCC(=O)NC(C)C)cc(C)c1I", "remaining activity [%]": "-3 ± 2"}
